Measurements collected from several papers.
A part holds a random share of what one study measured. Changes are numbered by the printed parent chain.

Sample 1 — technique: DHFR PCA, deep sequencing; sample: yeast; added: (+)-ABA 0.39 µM; relative to: wild-type fitted maximum; direction: higher = stronger binding; measurement: relative binding score
Target: ABI1, truncated, D143A, DHFR fusion (Arabidopsis thaliana)
Setting: methotrexate growth selection, single substitutions
Parent: PYL1, truncated, DHFR fusion (Arabidopsis thaliana); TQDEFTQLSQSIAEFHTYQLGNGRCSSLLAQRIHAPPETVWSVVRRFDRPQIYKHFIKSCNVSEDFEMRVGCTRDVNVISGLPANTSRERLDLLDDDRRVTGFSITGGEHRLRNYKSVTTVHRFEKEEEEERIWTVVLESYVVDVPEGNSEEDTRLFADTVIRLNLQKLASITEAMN
Substitution = N85E; result = 65.6%
Substitution = T135R; result = -5.08%
Substitution = R74K; result = -20.9%
Substitution = T160A; result = 9.6%
Substitution = E139K; result = 12.9%
Substitution = T154I; result = 3.17%
Substitution = V44M; result = 4.67%
Substitution = Q2K; result = 39.1%
Substitution = E151N; result = -13%
Substitution = G21D; result = 46.8%
Substitution = A170D; result = 9.45%
Substitution = F103D; result = -4.23%
Substitution = E38W; result = -4.82%
Substitution = I162T; result = 18.2%
Substitution = V62G; result = -11.7%
Substitution = V145S; result = -14.4%
Substitution = L156Q; result = 8.21%
Substitution = N177M; result = 47.7%

Sample 2 — technique: protein-binding microarray; form: double-stranded DNA, one strand shown; sample: in vitro; tested at: 250 nM; setting: 60-bp whole probe; added: salmon DNA 0.4 mg/ml; relative to: random background probes; direction: higher = stronger binding; measurement: log fluorescence; shared flanks, not repeated: GCCTAGCAC … GTCTTGATTCGCTTGACGCTGCTG
Target: Interferon regulatory factor 7, full length, phosphomimetic (IRF7, Homo sapiens, UniProt Q92985, residues 1-503, S101K/S471D/S472D/S475D/S476D/S477D/S483D/S484D/S487D)
Residues (chain): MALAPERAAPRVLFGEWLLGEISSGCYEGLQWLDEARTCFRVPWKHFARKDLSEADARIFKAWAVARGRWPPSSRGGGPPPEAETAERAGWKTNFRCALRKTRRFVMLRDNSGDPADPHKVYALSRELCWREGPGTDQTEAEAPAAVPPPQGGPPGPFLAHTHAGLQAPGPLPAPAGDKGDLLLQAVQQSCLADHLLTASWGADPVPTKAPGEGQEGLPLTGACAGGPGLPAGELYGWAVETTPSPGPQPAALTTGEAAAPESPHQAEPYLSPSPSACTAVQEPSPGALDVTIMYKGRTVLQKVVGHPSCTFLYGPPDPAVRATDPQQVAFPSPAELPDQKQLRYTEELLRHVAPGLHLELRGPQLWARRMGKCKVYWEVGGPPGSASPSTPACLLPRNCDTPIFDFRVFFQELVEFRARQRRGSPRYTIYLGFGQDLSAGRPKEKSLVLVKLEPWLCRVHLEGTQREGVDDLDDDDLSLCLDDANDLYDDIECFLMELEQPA
Sequence = TACAGCAGGGAGGGAGGCACGTGCTAG; result = -0.873 z-score
Sequence = TTAGGTCTCGGACTGGGGTAGTGCTAG; result = 0.116 z-score
Sequence = GACGGTCTCGGTCGCGGGACGTGCTAG; result = 0.0405 z-score
Sequence = ATTTGCTTCAGGTTTACCAGAGTGCTA; result = 0.715 z-score
Sequence = AAGGTTACCCATCTCAAGTAGTGCTAG; result = 0.438 z-score
Sequence = TCAGATTTCAGTATCGATTAGTGCTAG; result = 1.52 z-score
Sequence = TCAAATTTCCCTCTGCTACTGTGCTAG; result = 0.789 z-score
Sequence = TCATGAATGTGTCTTAAACTGTGCTAG; result = -0.272 z-score
Sequence = TTAGGTCTCCATTTCCTTTAGTGCTAG; result = 2.19 z-score
Sequence = TCATTTTTGGTTTCTGGACTGTGCTAG; result = 2.18 z-score
Sequence = TACGATATCGGGTATCGAGACGTGCTA; result = 0.347 z-score
Sequence = GACGGTTTCGGGACGGGGGACGTGCTA; result = 6.8 z-score
Sequence = GACGGTTGCGGTATCGGGACGTGCTAG; result = 0.103 z-score
Sequence = GACGGACTAGGGTATCGGGACGTGCTA; result = 0.0396 z-score
Sequence = GTAGGTTTCCTTTTCCTTTAGTGCTAG; result = 6.65 z-score
Sequence = ATGTTTGTCACTCTCAGAATGTGCTAG; result = 0.736 z-score
Sequence = GTAGGACTGGACACTGGGTTAGTGCTA; result = -0.905 z-score
Sequence = GACGGCATCGGTATCGGGACGTGCTAG; result = -0.242 z-score
Sequence = TCAGGTATCGGGTTTCGGTTAGTGCTA; result = 7.38 z-score
Sequence = GTCGGTTTCGGTTCCGGGACGTGCTAG; result = 13.3 z-score

Sample 3 — technique: competition protein-binding microarray; form: double-stranded DNA, one strand shown; sample: in vitro; tested at: 2 µM; added: Cbf1 competitor, 0.05 µM; direction: higher = stronger binding; measurement: fluorescence intensity; shared flanks, not repeated: … GTCTTGATTCGCTTGACGCTGCTG
Target: Phosphate system positive regulatory protein PHO4, full length, GST-tagged (PHO4, Saccharomyces cerevisiae, UniProt P07270, residues 1-312)
Setting: whole 60-bp probe, lowest competitor level
Construct (chain): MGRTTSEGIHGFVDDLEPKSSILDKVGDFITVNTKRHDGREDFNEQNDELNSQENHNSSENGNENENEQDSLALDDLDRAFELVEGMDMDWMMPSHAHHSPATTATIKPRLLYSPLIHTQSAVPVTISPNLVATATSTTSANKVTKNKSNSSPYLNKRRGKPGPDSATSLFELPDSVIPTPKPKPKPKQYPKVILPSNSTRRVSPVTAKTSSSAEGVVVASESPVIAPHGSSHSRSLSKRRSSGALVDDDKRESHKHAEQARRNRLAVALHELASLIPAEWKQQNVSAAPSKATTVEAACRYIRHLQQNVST
Sequence = GACAGATGTGGAGTCAGCGTGGGTAGTGGGGTAACA; result = 7300 a.u.
Sequence = GTAAGAACTCAGCTTCCCGTGAGGATGGTTCTAATG; result = 4290 a.u.
Sequence = ATCTTCTTTCACAATCACGTGAAACTTCCTCGATAT; result = 11900 a.u.
Sequence = AAGAAATATCTGTGAAATGTGACGCTTATAGCATAC; result = 4850 a.u.
Sequence = AAAGCGGTAATTTTTCACGTGAGTTCACATATCTAT; result = 11000 a.u.
Sequence = CTAAGGCTGATGCTCAACGTGAAAAGGCTTTGAACG; result = 5930 a.u.
Sequence = ATGAGAAGCGCAAATGTCGTGATGGCAATAGCCCGG; result = 4830 a.u.
Sequence = CATACCCAACCTTGGAACGTGGGTGAAGATATTTGT; result = 14300 a.u.
Sequence = AAAAAGTAAAGTTAGCACGTGATGGTTTAGAAAATC; result = 17500 a.u.
Sequence = AACTGCGACCGACACAGCGTGCGATACTAGGGAAGT; result = 8080 a.u.
Sequence = ATCATAACGGAGCGAACCGTGCCGAAGATGTCAAGA; result = 9030 a.u.
Sequence = GGATAATGCTTTTTTCCCGTGGCCGTTACATTTTTG; result = 6220 a.u.
Sequence = CATACCCAACCTTGGGGCGTGGGTGAAGATATTTGT; result = 11000 a.u.
Sequence = GCTACCCCGGCCTGCCGTGTGGCTCTCTGTGCGAAG; result = 5430 a.u.
Sequence = CAAGATCTTTGGCAAAACGTGGACCCCAACTTCGAA; result = 12600 a.u.
Sequence = TGCTCCGTTGACATCTTCGTGGGTACTCATATCACT; result = 5880 a.u.
Sequence = TTGCTTTATCGAAAATCCGTGATGGCGGTCCTTCAG; result = 3350 a.u.
Sequence = CAACGTATAGACCATCACGTGGTGAGTTTGAAGGGA; result = 16700 a.u.
Sequence = AGAATCAAAGCTCACCACGTCATAGTTGCGAAAGCC; result = 5200 a.u.
Sequence = TTGATTAATGATTCCTTTTCCTCTTCTAGTGAAGTA; result = 2510 a.u.
Sequence = CGTCCTAGTGATTGGTCCGTGGGTGCCATGAGGAAG; result = 8140 a.u.
Sequence = AAAGCGGTAATTTGTCACTCGACTTCACATATCTAT; result = 3200 a.u.

Sample 4 — target: CCNB1, cyclin fold, Cln2 fusion (human); technique: yeast growth competition, sequencing; sample: yeast; setting: weak parent motif; relative to: not given; direction: higher = stronger binding; measurement: normalised enrichment score
Parent: RB1 docking peptide (human); PKPLKKLRFDIEG
Substitution = PKPLKKLRCDIEG [F9C]; result = -0.139
Substitution = PKPLKKLRFDIEC [G13C]; result = 1.39
Substitution = PKPLKKLRFDIQG [E12Q]; result = 0.933
Substitution = PKPLRKLRLDIEG [K5R F9L]; result = -0.0405
Substitution = PKPLKKLRFDIEL [G13L]; result = 0.337
Substitution = PKPLKKLRFDMEG [I11M]; result = 0.415
Substitution = PKGLKKLRFDIEG [P3G]; result = 1.09
Substitution = CKPLKKLRFDIEG [P1C]; result = 1.3
Substitution = PKPLKKLRFDWEG [I11W]; result = 0.578
Substitution = PKPLYKLRFDIEG [K5Y]; result = 0.841
Substitution = PKPLKKLRFDDEG [I11D]; result = 0.201
Substitution = PIPLKKLRFDIEG [K2I]; result = 0.966
Substitution = PKPLKGLRFDIEG [K6G]; result = 0.518
Substitution = PKPLKKLRFDSEG [I11S]; result = 0.0202
Substitution = PKPLKKLRFDIWG [E12W]; result = 0.646
Substitution = PKPLKKLRFDGEG [I11G]; result = 0.987
Substitution = PKPLKKLRMDIEG [F9M]; result = 1.19
Substitution = PKPLKALRFDIEG [K6A]; result = 0.761

Some of these lines once more (sample 1):
Substitution = Q2K; result = 39.1%
Substitution = V62G; result = -11.7%
Substitution = E38W; result = -4.82%
Substitution = T154I; result = 3.17%
Substitution = E139K; result = 12.9%
Substitution = N177M; result = 47.7%
Substitution = V44M; result = 4.67%
